Measured values of several laboratories.
Each line is one published result; not all experiments were run side by side. Values joined by “and” are separate records of one study, mostly repeats; a detail may differ. ± marks the error that the study gave.
U2AF2: U2AF2 148-342 (Homo sapiens, UniProt P26368)
UniProt P26368, sequence (whole entry, looked up): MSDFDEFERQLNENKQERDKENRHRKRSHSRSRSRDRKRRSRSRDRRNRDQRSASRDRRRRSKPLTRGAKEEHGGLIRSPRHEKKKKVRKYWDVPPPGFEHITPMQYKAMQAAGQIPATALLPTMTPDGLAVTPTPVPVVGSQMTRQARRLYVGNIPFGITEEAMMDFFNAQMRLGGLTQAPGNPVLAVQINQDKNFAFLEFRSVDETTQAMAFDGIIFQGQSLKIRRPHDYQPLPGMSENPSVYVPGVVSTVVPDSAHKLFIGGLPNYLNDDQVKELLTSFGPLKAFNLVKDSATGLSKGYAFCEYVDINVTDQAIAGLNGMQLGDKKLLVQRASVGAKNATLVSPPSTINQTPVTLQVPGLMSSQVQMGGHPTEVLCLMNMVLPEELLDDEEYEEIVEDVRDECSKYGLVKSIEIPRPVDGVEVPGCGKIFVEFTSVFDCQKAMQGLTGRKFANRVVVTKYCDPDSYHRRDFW
B1: human ROCK2; sequence looked up; chain MSRPPPTGKMPGAPETAPGDGAGASRQRKLEALIRDPRSPINVESLLDGLNSLVLDLDFPALRKNKNIDNFLNRYEKIVKKIRGLQMKAEDYDVVKVIGRGAFGEVQLVRHKASQKVYAMKLLSKFEMIKRSDSAFFWEERDIMAFANSPWVVQLFYAFQDDRYLYMVMEYMPGGDLVNLMSNYDVPEKWAKFYTAEVVLALDAIHSMGLIHRDVKPDNMLLDKHGHLKLADFGTCMKMDETGMVHCDTAVGTPDYISPEVLKSQGGDGFYGRECDWWSVGVFLYEMLVGDTPFYADSLVGTYSKIMDHKNSLCFPEDAEISKHAKNLICAFLTDREVRLGRNGVEEIRQHPFFKNDQWHWDNIRETAAPVVPELSSDIDSSNFDDIEDDKGDVETFPIPKAFVGNQLPFIGFTYYRENLLLSDSPSCRETDSIQSRKNEESQEIQKKLYTLEEHLSNEMQAKEELEQKCKSVNTRLEKTAKELEEEITLRKSVESALRQLEREKALLQHKNAEYQRKADHEADKKRNLENDVNSLKDQLEDLKKRNQNSQISTEKVNQLQRQLDETNALLRTESDTAARLRKTQAESSKQIQQLESNNRDLQDKNCLLETAKLKLEKEFINLQSALESERRDRTHGSEIINDLQGRICGLEEDLKNGKILLAKVELEKRQLQERFTDLEKEKSNMEIDMTYQLKVIQQSLEQEEAEHKATKARLADKNKIYESIEEAKSEAMKEMEKKLLEERTLKQKVENLLLEAEKRCSLLDCDLKQSQQKINELLKQKDVLNEDVRNLTLKIEQETQKRCLTQNDLKMQTQQVNTLKMSEKQLKQENNHLMEMKMNLEKQNAELRKERQDADGQMKELQDQLEAEQYFSTLYKTQVRELKEECEEKTKLGKELQQKKQELQDERDSLAAQLEITLTKADSEQLARSIAEEQYSDLEKEKIMKELEIKEMMARHKQELTEKDATIASLEETNRTLTSDVANLANEKEELNNKLKDVQEQLSRLKDEEISAAAIKAQFEKQLLTERTLKTQAVNKLAEIMNRKEPVKRGNDTDVRRKEKENRKLHMELKSEREKLTQQMIKYQKELNEMQAQIAEESQIRIELQMTLDSKDSDIEQLRSQLQALHIGLDSSSIGSGPGDAEADDGFPESRLEGWLSLPVRNNTKKFGWVKKYVIVSSKKILFYDSEQDKEQSNPYMVLDIDKLFHVRPVTQTDVYRADAKEIPRIFQILYANEGESKKEQEFPVEPVGEKSNYICHKGHEFIPTLYHFPTNCEACMKPLWHMFKPPPALECRRCHIKCHKDHMDKKEEIIAPCKVYYDISTAKNLLLLANSTEEQQKWVSRLVKKIPKKPPAPDPFARSSPRTSMKIQQNQSIRRPSRQLAPNKPS
B2: human DDX3X; sequence looked up; chain SHVAVENALGLDQQFAGLDLNSSDNQSGGSTASKGRYIPPHLRNREATKGFYDKDSSGWSSSKDKDAYSSFGSRSDSRGKSSFFSDRGSGSRGRFDDRGRSDYDGIGSRGDRSGFGKFERGGNSRWCDKSDEDDWSKPLPPSERLEQELFSGGNTGINFEKYDDIPVEATGNNCPPHIESFSDVEMGEIIMGNIELTRYTRPTPVQKHAIPIIKEKRDLMACAQTGSGKTAAFLLPILSQIYSDGPGEALRAMKENGRYGRRKQYPISLVLAPTRELAVQIYEEARKFSYRSRVRPCVVYGGADIGQQIRDLERGCHLLVATPGRLVDMMERGKIGLDFCKYLVLDEADRMLDMGFEPQIRRIVEQDTMPPKGVRHTMMFSATFPKEIQMLARDFLDEYIFLAVGRVGSTSENITQKVVWVEESDKRSFLLDLLNATGKDSLTLVFVETKKGADSLEDFLYHEGYACTSIHGDRSQRDREEALHQFRSGKSPILVATAVAARGLDISNVKHVINFDLPSDIEEYVHRIGRTGRVGNLGLATSFFNERNINITKDLLDLLVEAKQEVPSWLENMAYEHHYKGSSRGRSKSSRFSGGFGARDYRQSSGASSSSFSSSRASSSRSGGGGHGSSRGFGGGGYGGFYNSDGYGGNYNSQGVDWWGN
B3: PP4 regulatory subunit 1 (human); sequence looked up; chain MADLSLLQEDLQEDADGFGVDDYSSESDVIIIPSALDFVSQDEMLTPLGRLDKYAASENIFNRQMVARSLLDTLREVCDDERDCIAVLERISRLADDSEPTVRAELMEQVPHIALFCQENRPSIPYAFSKFLLPIVVRYLADQNNQVRKTSQAALLALLEQELIERFDVETKVCPVLIELTAPDSNDDVKTEAVAIMCKMAPMVGKDITERLILPRFCEMCCDCRMFHVRKVCAANFGDICSVVGQQATEEMLLPRFFQLCSDNVWGVRKACAECFMAVSCATCQEIRRTKLSALFINLISDPSRWVRQAAFQSLGPFISTFANPSSSGQYFKEESKSSEEMSVENKNRTRDQEAPEDVQVRPEDTPSDLSVSNSSVILENTMEDHAAEASGKPLGEISVPLDSSLLCTLSSESHQEAASNENDKKPGNYKSMLRPEVGTTSQDSALLDQELYNSFHFWRTPLPEIDLDIELEQNSGGKPSPEGPEEESEGPVPSSPNITMATRKELEEMIENLEPHIDDPDVKAQVEVLSAALRASSLDAHEETISIEKRSDLQDELDINELPNCKINQEDSVPLISDAVENMDSTLHYIHSDSDLSNNSSFSPDEERRTKVQDVVPQALLDQYLSMTDPSRAQTVDTEIAKHCAYSLPGVALTLGRQNWHCLRETYETLASDMQWKVRRTLAFSIHELAVILGDQLTAADLVPIFNGFLKDLDEVRIGVLKHLHDFLKLLHIDKRREYLYQLQEFLVTDNSRNWRFRAELAEQLILLLELYSPRDVYDYLRPIALNLCADKVSSVRWISYKLVSEMVKKLHAATPPTFGVDLINELVENFGRCPKWSGRQAFVFVCQTVIEDDCLPMDQFAVHLMPHLLTLANDRVPNVRVLLAKTLRQTLLEKDYFLASASCHQEAVEQTIMALQMDRDSDVKYFASIHPASTKISEDAMSTASSTY
B4: human desmocollin-1; sequence looked up; chain RWAPIPASLMENSLGPFPQHVQQIQSDAAQNYTIFYSISGPGVDKEPFNLFYIEKDTGDIFCTRSIDREKYEQFALYGYATTADGYAPEYPLPLIIKIEDDNDNAPYFEHRVTIFTVPENCRSGTSVGKVTATDLDEPDTLHTRLKYKILQQIPDHPKHFSIHPDTGVITTTTPFLDREKCDTYQLIMEVRDMGGQPFGLFNTGTITISLEDENDNPPSFTETSYVTEVEENRIDVEILRMKVQDQDLPNTPHSKAVYKILQGNENGNFIISTDPNTNEGVLCVVKPLNYEVNRQVILQVGVINEAQFSKAASSQTPTMCTTTVTVKIIDSDEGPECHPPVKVIQSQDGFPAGQELLGYKALDPEISSGEGLRYQKLGDEDNWFEINQHTGDLRTLKVLDRESKFVKNNQYNISVVAVDAVGRSCTGTLVVHLDDYNDHAPQIDKEVTICQNNEDFAVLKPVDPDGPENGPPFQFFLDNSASKNWNIEEKDGKTAILRQRQNLDYNYYSVPIQIKDRHGLVATHMLTVRVCDCSTPSECRMKDKSTRDVRPNVILGRWAILAMVLGSVLLLCILFTCFCVTAKRTVKKCFPEDIAQQNLIVSNTEGPGEEVTEANIRLPMQTSNICDTSMSVGTVGGQGIKTQQSFEMVKGGYTLDSNKGGGHQTLESVKGVGQGDTGRYAYTDWQSFTQPRLGEKVYLCGQDEEHKHCEDYVCSYNYEGKGSLAGSVGCCSDRQEEEGLEFLDHLEPKFRTLAKTCIKK
UniProt P29055, sequence (whole entry, looked up): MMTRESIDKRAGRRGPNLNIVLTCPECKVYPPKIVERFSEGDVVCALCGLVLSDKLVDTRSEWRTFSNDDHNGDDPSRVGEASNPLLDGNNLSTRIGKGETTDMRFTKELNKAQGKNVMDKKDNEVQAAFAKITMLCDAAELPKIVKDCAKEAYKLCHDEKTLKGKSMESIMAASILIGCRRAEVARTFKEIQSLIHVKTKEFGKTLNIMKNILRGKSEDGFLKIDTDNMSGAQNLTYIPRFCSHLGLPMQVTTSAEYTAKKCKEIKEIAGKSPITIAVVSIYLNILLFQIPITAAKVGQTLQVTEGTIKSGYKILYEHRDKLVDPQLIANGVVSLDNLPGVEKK

| Substance | tested on | assay | system | setting | scale | quantity | value |
| --- | --- | --- | --- | --- | --- | --- | --- |
| difelikefalin |  |  | Japanese haemodialysis patients with pruritus | intravenous, 0.5 µg/kg, 8 weeks |  | PGIC minimally improved | 22% |
| Peginesatide | UT7/EPO | tyrosine phosphorylation, LC-MS/MS phosphoproteomics, trypsin, item: OTC tyrosine 55 |  | 10 nM, 15 min, with: 10 U/mL EPO | relative to: vehicle | phosphorylation level | 31.1 fold |
| GSGAGKETYY | construct, MBP fusion, human SCRIB, PDZ 3-4 | automated holdup | peptide, crude extract | concentration not given, corrected by standard peak, unit not given | relative to: biotin control resin, higher = stronger binding | binding intensity | -0.00728 |
| B1 (human ROCK2) | CYB5R4 knockout human cells | PP4 interaction, 3xFLAG-PP4C IP-MS |  | concentration not given | relative to: CYB5R4 KO over parental | log2 fold change | 0.0357 |
| SEKHFRETEV | construct, MBP fusion, human SCRIB, PDZ 3-4 | automated holdup | peptide, crude extract | concentration not given, uncorrected, unit not given | relative to: biotin control resin, higher = stronger binding | binding intensity | 0.809 |
| GAUUAUAUG (ssRNA) | U2AF2 | sequencing of bound RNA | RNA | motif only |  | Kd | 5.65 µM |
| colistin | Escherichia coli | broth microdilution | clinical isolate RKI-No_514/16 |  |  | MIC | ≤ 0.5 µg/mL |
| GSGAGSETKM | construct, MBP fusion, human SCRIB, PDZ 3-4 | automated holdup | peptide, crude extract | concentration not given, corrected by standard peak, unit not given | relative to: biotin control resin, higher = stronger binding | binding intensity | 0.102 |
| MTVCNASQRQAHAQATAVSL | Calu-1 lung mucoepidermoid carcinoma | phage binding output/input | peptide |  | relative to: control phage | selectivity ratio | 2.8 ± 0.48 |
| VVVGAAGVGK | HLA-A*11:01 peptide-β2M single-chain trimer | western blot, item: pMHC-I | peptide, 293T cells | 18 h, unit not given, with: 100 µg/mL cycloheximide | relative to: time zero | remaining protein | 0.759 and 0.754 and 0.751 |
| milbemycin oxime | Saccharomyces cerevisiae | cell growth | Pdr5 deleted, Cdr1 overexpressed | 2^-8.966 µg/mL, with: fluconazole 10 µg/mL |  | OD600 | 1.05 and 1.11 and 1.02 |
| B2 (human DDX3X) | CYB5R4 knockout human cells | PP4 interaction, 3xFLAG-PP4C IP-MS |  | concentration not given | relative to: CYB5R4 KO over parental | log2 fold change | -0.81 |
| CUAAGUUUU (ssRNA) | U2AF2 | sequencing of bound RNA | RNA | motif only |  | Kd | 4.1 µM |
| clathrin heavy chain 1, human | CYB5R4 knockout human cells | PP4 interaction, 3xFLAG-PP4C IP-MS |  | concentration not given | relative to: CYB5R4 KO over parental | log2 fold change | -0.43 |
| KDECVIATEV | construct, MBP fusion, human SCRIB, PDZ 3-4 | automated holdup | peptide, crude extract | concentration not given, uncorrected, unit not given | relative to: biotin control resin, higher = stronger binding | binding intensity | 0.2 |
| B3 (PP4 regulatory subunit 1) | CYB5R4 knockout human cells | PP4 interaction, 3xFLAG-PP4C IP-MS |  | concentration not given | relative to: CYB5R4 KO over parental | log2 fold change | -0.31 |
| ATGATTACTAATTCTTAACATTCGAGTTCAATCTCTCAAGTCAATCGGTCC (dsDNA; 5'-amino-C6 primer) | SUA7 full length assumed (Saccharomyces cerevisiae, UniProt P29055) | array | double-stranded DNA, one strand shown | TFIIB alone |  | Kd | 0.00284 ± 0.0004 µM |
| B4 (human desmocollin-1) | PP6C (human) | co-immunoprecipitation, IP-MS | CYB5R4 knockout cells | concentration not given | relative to: CYB5R4 knockout over parental | log2 fold change | 0.58 |
| epoetin alfa | UT7/EPO | RT-qPCR, item: PTGS2 |  | concentration not given, 90 min, normalized to HPRT1 | relative to: vehicle | mRNA level | 4.5 fold |

Repeated from above:
| Substance | tested on | assay | system | setting | scale | quantity | value |
| --- | --- | --- | --- | --- | --- | --- | --- |
| B3 (PP4 regulatory subunit 1) | CYB5R4 knockout human cells | PP4 interaction, 3xFLAG-PP4C IP-MS |  | concentration not given | relative to: CYB5R4 KO over parental | log2 fold change | -0.31 |
| clathrin heavy chain 1, human | CYB5R4 knockout human cells | PP4 interaction, 3xFLAG-PP4C IP-MS |  | concentration not given | relative to: CYB5R4 KO over parental | log2 fold change | -0.43 |
